Experimental data pooled from the literature.
Protocols differ between the studies behind these lines. ± gives the spread as reported.
NR3C1: Glucocorticoid receptor (NR3C1, Homo sapiens, UniProt P04150)

The chains behind the UniProt entries cited, without tags or fusion partners.
UniProt P04150, whole entry: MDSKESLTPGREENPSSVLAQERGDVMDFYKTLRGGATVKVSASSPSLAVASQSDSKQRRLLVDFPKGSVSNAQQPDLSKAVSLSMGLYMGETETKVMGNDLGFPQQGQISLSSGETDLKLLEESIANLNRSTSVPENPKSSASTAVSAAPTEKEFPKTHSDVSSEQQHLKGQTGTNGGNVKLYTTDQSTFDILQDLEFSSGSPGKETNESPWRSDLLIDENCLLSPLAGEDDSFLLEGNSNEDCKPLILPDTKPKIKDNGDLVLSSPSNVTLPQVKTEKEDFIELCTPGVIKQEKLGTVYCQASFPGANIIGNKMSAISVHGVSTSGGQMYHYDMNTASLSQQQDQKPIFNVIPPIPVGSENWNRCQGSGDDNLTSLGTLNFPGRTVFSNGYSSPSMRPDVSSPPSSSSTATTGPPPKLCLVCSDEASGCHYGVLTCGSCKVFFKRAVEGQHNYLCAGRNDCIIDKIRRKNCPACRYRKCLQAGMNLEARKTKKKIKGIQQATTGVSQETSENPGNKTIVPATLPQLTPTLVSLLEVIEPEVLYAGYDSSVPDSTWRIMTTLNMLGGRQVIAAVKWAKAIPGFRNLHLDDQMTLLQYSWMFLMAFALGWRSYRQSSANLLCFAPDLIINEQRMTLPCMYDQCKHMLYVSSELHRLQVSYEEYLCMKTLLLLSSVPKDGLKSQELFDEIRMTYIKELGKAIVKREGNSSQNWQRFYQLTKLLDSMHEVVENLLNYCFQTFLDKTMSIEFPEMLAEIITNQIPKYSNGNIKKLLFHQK
UniProt Q9ULD4, whole entry: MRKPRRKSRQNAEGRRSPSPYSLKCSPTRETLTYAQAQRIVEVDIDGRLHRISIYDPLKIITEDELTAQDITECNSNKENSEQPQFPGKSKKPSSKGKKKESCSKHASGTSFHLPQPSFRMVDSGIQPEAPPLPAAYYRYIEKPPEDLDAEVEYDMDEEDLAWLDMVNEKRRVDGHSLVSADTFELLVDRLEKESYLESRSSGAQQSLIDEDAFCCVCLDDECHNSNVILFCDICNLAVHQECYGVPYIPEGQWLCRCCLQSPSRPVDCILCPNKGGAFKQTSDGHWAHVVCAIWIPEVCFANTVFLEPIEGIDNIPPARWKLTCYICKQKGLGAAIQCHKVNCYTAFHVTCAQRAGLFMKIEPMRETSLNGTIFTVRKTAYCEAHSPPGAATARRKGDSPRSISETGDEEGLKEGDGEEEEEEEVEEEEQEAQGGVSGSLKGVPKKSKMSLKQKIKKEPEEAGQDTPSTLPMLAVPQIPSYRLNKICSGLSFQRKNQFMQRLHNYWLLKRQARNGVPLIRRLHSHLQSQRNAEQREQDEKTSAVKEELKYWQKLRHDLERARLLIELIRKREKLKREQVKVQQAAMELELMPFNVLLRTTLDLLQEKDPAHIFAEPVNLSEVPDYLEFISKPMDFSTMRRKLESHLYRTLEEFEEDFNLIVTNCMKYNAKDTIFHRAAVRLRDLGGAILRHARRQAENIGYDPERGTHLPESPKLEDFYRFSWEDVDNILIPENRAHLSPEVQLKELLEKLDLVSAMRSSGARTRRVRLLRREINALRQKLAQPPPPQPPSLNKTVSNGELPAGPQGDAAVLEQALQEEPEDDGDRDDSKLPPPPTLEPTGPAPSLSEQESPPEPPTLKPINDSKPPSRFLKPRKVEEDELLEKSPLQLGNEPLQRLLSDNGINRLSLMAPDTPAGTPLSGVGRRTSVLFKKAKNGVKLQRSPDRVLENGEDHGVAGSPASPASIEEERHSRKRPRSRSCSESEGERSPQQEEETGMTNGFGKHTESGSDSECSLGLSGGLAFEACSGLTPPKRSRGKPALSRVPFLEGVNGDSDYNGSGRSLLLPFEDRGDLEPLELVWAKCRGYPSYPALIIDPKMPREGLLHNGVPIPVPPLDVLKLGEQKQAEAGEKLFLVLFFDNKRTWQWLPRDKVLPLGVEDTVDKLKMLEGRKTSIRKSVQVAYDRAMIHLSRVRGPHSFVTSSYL
UniProt P10636, whole entry, looked up: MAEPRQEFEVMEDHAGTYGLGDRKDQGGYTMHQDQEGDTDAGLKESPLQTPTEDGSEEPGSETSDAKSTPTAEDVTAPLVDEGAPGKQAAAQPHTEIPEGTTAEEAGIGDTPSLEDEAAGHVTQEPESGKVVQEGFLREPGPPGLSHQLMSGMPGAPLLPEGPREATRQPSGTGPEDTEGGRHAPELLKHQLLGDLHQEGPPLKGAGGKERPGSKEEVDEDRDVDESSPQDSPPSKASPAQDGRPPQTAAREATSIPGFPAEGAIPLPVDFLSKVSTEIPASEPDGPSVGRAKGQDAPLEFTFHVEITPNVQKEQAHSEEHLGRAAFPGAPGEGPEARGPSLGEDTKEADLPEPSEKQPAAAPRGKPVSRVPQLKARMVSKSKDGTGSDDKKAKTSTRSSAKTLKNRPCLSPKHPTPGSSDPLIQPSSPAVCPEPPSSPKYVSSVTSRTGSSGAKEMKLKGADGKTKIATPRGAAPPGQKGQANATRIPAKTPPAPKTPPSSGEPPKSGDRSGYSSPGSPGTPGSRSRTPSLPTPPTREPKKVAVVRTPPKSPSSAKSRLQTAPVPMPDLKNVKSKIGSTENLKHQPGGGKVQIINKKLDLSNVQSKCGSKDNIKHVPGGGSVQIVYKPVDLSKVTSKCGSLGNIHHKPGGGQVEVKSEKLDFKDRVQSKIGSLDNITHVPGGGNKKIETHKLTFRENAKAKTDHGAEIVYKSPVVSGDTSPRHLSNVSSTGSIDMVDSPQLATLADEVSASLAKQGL
UniProt Q9H2K8, whole entry: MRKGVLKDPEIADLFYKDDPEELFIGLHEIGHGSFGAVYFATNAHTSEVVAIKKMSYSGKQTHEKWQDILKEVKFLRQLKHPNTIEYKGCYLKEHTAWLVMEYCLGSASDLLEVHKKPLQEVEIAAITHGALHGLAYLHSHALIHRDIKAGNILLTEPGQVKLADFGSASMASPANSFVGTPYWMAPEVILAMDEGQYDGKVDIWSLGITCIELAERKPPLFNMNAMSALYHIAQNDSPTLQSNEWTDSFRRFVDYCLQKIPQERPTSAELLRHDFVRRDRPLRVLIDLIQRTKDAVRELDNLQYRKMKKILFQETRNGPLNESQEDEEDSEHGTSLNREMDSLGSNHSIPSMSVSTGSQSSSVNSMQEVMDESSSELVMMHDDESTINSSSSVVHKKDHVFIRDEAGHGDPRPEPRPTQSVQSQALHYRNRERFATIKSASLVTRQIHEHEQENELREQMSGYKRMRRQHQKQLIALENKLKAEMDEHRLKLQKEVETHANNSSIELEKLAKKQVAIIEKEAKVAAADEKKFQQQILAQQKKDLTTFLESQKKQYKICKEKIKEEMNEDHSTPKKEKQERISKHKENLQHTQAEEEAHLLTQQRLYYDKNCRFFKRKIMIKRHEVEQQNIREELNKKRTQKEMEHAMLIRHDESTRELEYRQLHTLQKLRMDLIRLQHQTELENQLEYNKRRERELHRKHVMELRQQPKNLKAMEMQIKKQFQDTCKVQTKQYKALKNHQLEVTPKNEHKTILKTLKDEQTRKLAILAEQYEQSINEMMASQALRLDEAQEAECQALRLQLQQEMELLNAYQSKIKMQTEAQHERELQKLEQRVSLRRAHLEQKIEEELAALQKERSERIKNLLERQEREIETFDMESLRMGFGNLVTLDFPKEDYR

CN1CCC[C@H](C(=O)OCC(=O)[C@]2(O)CC[C@@H]3[C@H]4CCC5=CC(=O)CC[C@@]5(C)[C@H]4[C@@H](O)C[C@]32C)C1
EC50 (NR3C1; nuclear translocation, agonist, enzyme fragment complementation): > 9 µM

CC[C@@H]1C(=O)N(C)c2cnc(Nc3ccc(C(=O)NC4CCN(C)CC4)cc3OC)nc2N1C1CCCC1
delta Tm (Bromodomain and PHD finger-containing protein 3 (BRPF3, Homo sapiens, UniProt Q9ULD4); 10 µM): 0.21 ± 0.31 °C

O=C(/C=C/c1nc2ccccc2[nH]1)c1c(-c2ccccc2)c2cc(Cl)ccc2[nH]c1=O
EC50 (SK-MEL-5; cell viability, CellTiter-Blue; 72 h): 5 µM

COc1cc(CC(=O)NCC(NC(=O)C(CCCNC(=O)c2cccc(I)c2)NC(=O)C(Cc2ccc(C(F)(F)P(=O)(O)O)cc2)NC(=O)c2ccc(C)c(Br)c2)C(N)=O)ccc1O (centres unmarked)
Foxo1 Ser253 phosphorylation (primary mouse hepatocytes; Western blot; 100 nM, together with: insulin 5 nM, 5 min; relative to: insulin alone): 2.1 fold

CC(C)c1cc2c(N3CCN(C4=NCC(C)(C)S4)CC3)ncnc2s1
CD11b expression (MLL-AF9 transformed mouse BMC; flow cytometry; 7 d; relative to: DMSO): increased

C[C@H]1CCCN1Cc1cc2cnc(NC(=O)c3ccc4c(cnn4C)c3)cc2[nH]1
mRNA level (primary AML cells, MLL1-rearranged or NPM1-mutant; RT-qPCR, refers to: MYC, HOXA9, MYB; 1 µM): decreased

Fc1cc(-c2ccc3c(n2)[nH]c2ccncc23)ccn1 [isotope labelled]
specific binding (Microtubule-associated protein tau, paired helical filaments (MAPT, Homo sapiens, UniProt P10636); radioligand binding; PHF tau brain homogenate; 2.52 nM; higher = more binding): 3.03 a.u.

c1ccc2[nH]c3c(N=NC4=NCCN4)c4ccccc4c-3nc2c1
IC50 (K562; cytotoxicity, XTT; 96 h): 0.18 ± 0.15 µM

COc1cc(N2CCN(C)CC2)ccc1Nc1ncc2c(n1)N(C)c1ccccc1C(=O)N2
cell growth (A549; cell count; 10 µM, 7 d): inhibited

CCC1CCCCN1C(=O)CON=C1C=CCCC=CCCOC(=O)c2c(O)cc(O)cc2C1 (centres unmarked)
EC50 (SK-BR-3; Her-2 depletion, refers to: Her-2; overnight): < 1 µM

CCN1CCN(Cc2ccc(NC(=O)c3ccc(C)c(Oc4ncnc5cc(OC)c(OC)cc45)c3)cc2C(F)(F)F)CC1
residual probe binding (Serine/threonine-protein kinase TAO3 (TAOK3, Homo sapiens, UniProt Q9H2K8); KINOMEscan competition binding; 1.0 µM): 0.3%

CN1CCN(c2nc(NCc3nc4cc(Cl)ccc4[nH]3)c3ncn(-c4ccoc4)c3n2)CC1
EC50 (A-375; cell viability, MTT): 0.003 µM

CCc1c(-c2ccccc2)nn2c(=O)cc(-c3cccc(C(=O)O)c3)[nH]c12
plasma level (mouse; 2 mg/kg, 24 h): not detected

O=C1C=C(NCCc2cc(Br)c(O)c(Br)c2)C(=O)c2ncccc21
metastatic growth (K7M2 GFP cells; mouse lung organ culture; 10 µM): inhibited

O=c1/c(=C/c2ccc(-c3cc(Cl)cc(Cl)c3)o2)sc2nc3cc(Br)cnc3n12
phospho-ERK1/2 level (Jurkat TAg T cells; TCR signalling, immunoblot; 40 µM, 45 min preincubation, together with: OKT3 5 min; relative to: DMSO): increased

Cc1cccc(NC(=O)c2nn(Cc3cnc[nH]3)c3c2CN(C(=O)c2ccc[nH]2)CC3)c1
G0-phase cells (IDH1 R132C AML cells; Hoechst/Pyronin Y staining; 3 µM, 7 days): 54.1 ± 3.8%

CCCC1CC=CCCC(C)=CC(=NOCC(=O)N(CC)CC)Cc2cc(O)cc(O)c2C(=O)O1 (centres unmarked)
EC50 (SK-BR-3; Her-2 depletion, refers to: Her-2; overnight): > 10 µM

O=C1CCC(N2C(=O)c3cccc(NCCOCCOCCOCCN4CCN(c5ccc(-c6ccc7c(c6)C(=O)N(C(C(=O)Nc6nccs6)c6ccccc6)C7)cn5)CC4)c3C2=O)C(=O)N1 (centres unmarked)
EC50 (Ba/F3 wild-type EGFR; cell proliferation): > 10 µM

C[C@@H]1CC[C@H]2[C@H](C)C3[C@H](C[C@H]4[C@@H]5CC=C6C[C@@H](O)CC[C@@]6(C)[C@@H]5C[C@@H](O)[C@]34C)N2C1 (some centres unmarked)
EC50 (NR3C1; nuclear translocation, agonist, enzyme fragment complementation): > 9 µM

CCCC1C/C=C/CCCCC(=NOCC(=O)N2CCCCC2)Cc2cc(O)cc(O)c2C(=O)O1 (centres unmarked)
EC50 (SK-BR-3; Her-2 depletion, refers to: Her-2; overnight): > 10 µM

CN(C)S(=O)(=O)c1cccc(-n2sc3ccccc3c2=O)c1
mineralization (mouse vascular smooth muscle cells; Alizarin Red staining; 30 µM, 21 days, together with: inorganic phosphate; relative to: vehicle): 41.8 ± 2%

CCN1CCN(Cc2ccc(Nc3ncc4c(n3)N(C)c3c(C)cccc3C(=O)N4C)cc2C(F)(F)F)CC1
EC50 (HCT-116; cell growth, CellTiter-Glo; 96 h): 0.238 µM

Nc1c(C(=O)Nc2c(F)cc(F)cc2Br)sc2nc3c(cc12)CCC3
total cellular copper increase (H1299; ICP-MS; 10 µM, 12 h): ~45%

O=C(Nc1cccnn1)N1CC(Oc2ccc(-c3ccccc3F)cn2)C1
tolerability (healthy humans; oral, 50 to 500 mg daily, up to 7 days): not toxic

Cc1c(O)cc2c(c1C)O[C@](C)(CCCC(C)C)CC2
IC50 (LNCaP and PC-3; cell viability, MTT; 24 h, serum-free medium): 7 to 10 µM

O=c1/c(=C/c2ccccc2Cl)sc2nc3cc(Br)cnc3n12
phospho-p38 level (Jurkat TAg T cells; TCR signalling, immunoblot; 40 µM, 45 min preincubation, together with: OKT3 5 min; relative to: DMSO): increased

Cc1cc(C)c(CNC(=O)c2cc(-c3ccc(N4CCN(CCNC(=O)CC56CC7CC(CC(C7)C5)C6)CC4)nc3)cc3c2cnn3C(C)C)c(=O)[nH]1
GI50 (MDA-MB-468; cell growth): 2.2 µM

Cc1ccc([C@H](CC(=O)O)NC(=O)Nc2c(O)c(C)cn(Cc3ccccc3Cl)c2=O)cc1
AKT phosphorylation (B-ALL cells; western blot; 25 µM, 1 h, together with: serum after starvation): no effect

O=C(O)CC1=C/C(=C\c2ccc(-c3ccccc3)cc2)c2ccc(F)cc21
growth inhibition (OVCAR-3; WST-1; up to 25 µM, 2 d): no effect

O=c1/c(=C/c2ccc(-c3ccccc3[N+](=O)[O-])o2)sc2nc3cc(Br)cnc3n12
phospho-p38 level (Jurkat TAg T cells; TCR signalling, immunoblot; 40 µM, 45 min preincubation, together with: OKT3 5 min; relative to: DMSO): increased

O=C1OC/C=C/CCCCC(=NOCC(=O)N2CCCCC2)Cc2cc(O)cc(O)c21
EC50 (SK-BR-3; Her-2 depletion, refers to: Her-2; overnight): > 10 µM

CCN1CCN(Cc2ccc(Nc3ncc4c(n3)N(C)c3c(F)cccc3C(=O)N4C)cc2C(F)(F)F)CC1
EC50 (HeLa S3; cell growth, CellTiter-Glo; 96 h): 0.792 µM

CC1CN(C(=O)CON=C2C=CCCC=CCCOC(=O)c3c(O)cc(O)cc3C2)CC(C)O1 (centres unmarked)
EC50 (SK-BR-3; Her-2 depletion, refers to: Her-2; overnight): ≤ 5 µM

CN1C(=O)c2ccccc2N(C)c2nc(Nc3ccc(N4CCC(O)CC4)cc3)ncc21
EC50 (HeLa S3; cell growth, CellTiter-Glo; 96 h): 0.0167 µM

C[C@]12CCC(=O)C=C1CCC1C2CC[C@]2(C)C(n3cnc4ccccc43)=CCC12 (some centres unmarked)
IC50 (LNCaP; cell proliferation, XTT; 7 days, without DHT): 2.2 µM

Excerpt of the above:
CC1CN(C(=O)CON=C2C=CCCC=CCCOC(=O)c3c(O)cc(O)cc3C2)CC(C)O1 (centres unmarked)
EC50 (SK-BR-3; Her-2 depletion, refers to: Her-2; overnight): ≤ 5 µM

O=c1/c(=C/c2ccccc2Cl)sc2nc3cc(Br)cnc3n12
phospho-p38 level (Jurkat TAg T cells; TCR signalling, immunoblot; 40 µM, 45 min preincubation, together with: OKT3 5 min; relative to: DMSO): increased

Nc1c(C(=O)Nc2c(F)cc(F)cc2Br)sc2nc3c(cc12)CCC3
total cellular copper increase (H1299; ICP-MS; 10 µM, 12 h): ~45%

C[C@@H]1CC[C@H]2[C@H](C)C3[C@H](C[C@H]4[C@@H]5CC=C6C[C@@H](O)CC[C@@]6(C)[C@@H]5C[C@@H](O)[C@]34C)N2C1 (some centres unmarked)
EC50 (NR3C1; nuclear translocation, agonist, enzyme fragment complementation): > 9 µM
